Measured values of several laboratories.
Parts stem from different laboratories: compare values within a part only.

Series 1
Target: Replicase polyprotein 1ab, main protease (rep, Severe acute respiratory syndrome coronavirus 2, UniProt P0DTD1)
Observed: enzyme activity
Mode: inhibitor
Concentration: 20 µM
Setting: hit confirmation, with DTT
Quantity: inhibition
CCN(CC)C(=S)SSC(=S)N(CC)CC: 36.1%
O=C1C(=Cc2cccnc2)C(=O)c2ccccc21: 60.4%
Cn1sc(=O)n(Cc2ccccc2)c1=O: 98.9%
c1ccc2sc(SN3CCOCC3)nc2c1: -2.9%

Series 2
Target: Centromere-binding protein 1, full length, N-terminal tag (CBF1, Saccharomyces cerevisiae, UniProt P17106, residues 1-351)
UniProt P17106, sequence (whole entry, looked up): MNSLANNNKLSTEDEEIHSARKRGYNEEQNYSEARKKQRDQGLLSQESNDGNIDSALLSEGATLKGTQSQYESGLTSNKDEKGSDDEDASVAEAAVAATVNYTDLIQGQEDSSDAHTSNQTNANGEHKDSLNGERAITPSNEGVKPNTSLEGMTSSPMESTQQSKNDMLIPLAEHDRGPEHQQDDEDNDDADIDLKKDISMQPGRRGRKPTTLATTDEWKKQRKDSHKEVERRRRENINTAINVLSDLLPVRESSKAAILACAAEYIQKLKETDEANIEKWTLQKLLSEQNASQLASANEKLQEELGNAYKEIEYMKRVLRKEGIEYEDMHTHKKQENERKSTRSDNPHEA
Method: protein-binding microarray
Form: double-stranded DNA, one strand shown
Matrix: in vitro
Concentration: 0.8 µM
Setting: whole 60-bp probe, no competitor
Reading: higher = stronger binding
Quantity: fluorescence intensity
All sequences stand within: … GTCTTGATTCGCTTGACGCTGCTG
TGTACGAAGCTATATCAACTGAATATAGTAGTTAGG: 520 a.u.
GAAGTTTACTTCGATCAGCTGTTTAGCTTTGCCTAG: 690 a.u.
GAATATTAGTTGTAGCATGTGCTCATCTCCATGTAG: 854 a.u.
TGTACGAAGCTATCAGCCGTGCCTATAGTAGTTAGG: 491 a.u.
GAACATAATGTCCCTCATGACCCATCTCTGCCGTAG: 627 a.u.
GAAACAGCCTTTTCAGAGGTGATGAGCAATCTCTAG: 533 a.u.
CTACAGGGCTCAGAGCGCATCACGATCGGGAGTTTC: 527 a.u.
GAATTCTTCTTATGTAACCACATGATATGCATATAG: 2880 a.u.

Series 3
Target: Histone acetyltransferase KAT6A, both winged helices, GST fusion (KAT6A, Homo sapiens, UniProt Q92794, residues 1-181)
Method: protein binding microarray
Form: double-stranded DNA, one strand shown
Matrix: in vitro
Concentration: not given
Setting: 8-mer, flanks averaged, mean of 2 arrays, mostly near background
Baseline: not given
Reading: higher = stronger binding
Quantity: E-score
Residues (chain): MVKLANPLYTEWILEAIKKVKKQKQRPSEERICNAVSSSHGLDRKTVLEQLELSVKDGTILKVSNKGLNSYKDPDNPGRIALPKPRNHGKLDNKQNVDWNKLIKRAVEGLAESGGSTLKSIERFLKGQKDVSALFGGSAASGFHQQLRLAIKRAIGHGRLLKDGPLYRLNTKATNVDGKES
TACCCATA: -0.191
AATGAATG: -0.0578
ATTCGTCA: -0.0802
AACGAGCC: -0.117
ATTTTCCA: -0.094
CCTTTTGC: -0.0396
CTAGTTTC: -0.0902
CATCACTA: -0.126

Series 4
Cell line: HEK-293T/ACE2
Concentration: 10 µM
Time: 16 h
Baseline: vehicle
Quantity: viability
CCC(Cc1c(I)cc(I)c(N)c1I)C(=O)O (stereo not shown): 101%
CCN(CC)C(=O)N1CCN(C)CC1: 98.2%
CN(C)CC[C@@H](c1ccc(Cl)cc1)c1ccccn1: 99.4%

Series 5
Target: Transcription factor SOX-2, HMG box (Sox2, Mus musculus, UniProt P48432, residues 41-119)
UniProt P48432, sequence (41-119, looked up): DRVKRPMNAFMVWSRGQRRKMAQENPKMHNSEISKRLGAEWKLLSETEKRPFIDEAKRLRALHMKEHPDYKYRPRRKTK
Method: Spec-seq
Form: double-stranded DNA, one strand shown
Matrix: in vitro
Concentration: not given
Setting: whole probe, mean of replicates
Baseline: not given
Reading: lower = stronger binding
Quantity: relative binding energy
GAGTCGTCTCGTCAGCACCATTCCGCCGTAGAGCACTCAGGTC: 0.498 ln ratio
GAGTCGTCTCGTCAGCACCATTCAGCCGTAGAGCACTCAGGTC: -1.5 ln ratio
GAGTCGTCTCGTCAGCACCATCGGGCCGTAGAGCACTCAGGTC: 0.475 ln ratio

Series 6
Target: Hepatocyte nuclear factor 3-alpha (Foxa1, Mus musculus, UniProt P35582, residues 1-468, full length assumed)
Method: EMSA with sequencing
Form: double-stranded DNA, one strand shown
Matrix: in vitro
Concentration: 10 and 20 nM
Setting: whole designed probe, mean of two concentrations, ends assumed
Baseline: negative control set to 0
Reading: higher = stronger binding
Quantity: normalised bound fraction
Target sequence (chain): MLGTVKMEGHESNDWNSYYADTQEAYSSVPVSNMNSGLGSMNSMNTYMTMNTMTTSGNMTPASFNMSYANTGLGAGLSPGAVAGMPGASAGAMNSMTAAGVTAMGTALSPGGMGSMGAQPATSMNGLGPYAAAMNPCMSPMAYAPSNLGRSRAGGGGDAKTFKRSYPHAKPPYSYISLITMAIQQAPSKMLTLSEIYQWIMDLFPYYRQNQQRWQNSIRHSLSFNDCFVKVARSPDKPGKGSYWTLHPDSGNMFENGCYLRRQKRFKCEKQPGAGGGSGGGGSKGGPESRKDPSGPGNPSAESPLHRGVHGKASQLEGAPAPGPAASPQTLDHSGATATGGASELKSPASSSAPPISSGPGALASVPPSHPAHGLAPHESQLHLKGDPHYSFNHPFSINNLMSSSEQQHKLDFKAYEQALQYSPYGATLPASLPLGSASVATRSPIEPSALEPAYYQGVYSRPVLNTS
GTGAGCGGTGCCCATTGATGGGGAACTCAACTGACTCACCCAGAGCAACTTCTAGTCCTGCAAGCTATGTTCATGGAGTGTCCTATGCAGGTGCATCCTTTTTTATCTTTTATACTGCATGTTTACTCTGTGTATTTTCTGTGTTTAGACTCATAAATACTTAACATTTTGTTACAATTTCCTACAGTGTTCAGTACAACAACATGTTGTATGGTTTATTTTCACTGGGATCGTGGGGAC: 0.303 ratio
GTGAGCGGTGCCCATTGATGGGGAACATCTTCCCCCTCTTCCTTGCCCCACCAGCTCACCTACGGGGGTTATTTGCACAAAGGAAAATAAATAAAGCCGGCATTCGTTAACCCTCTTCTGGCGCAAACTGCTGTTTGCTCTGCATCTAACATGGTCCTTACGCGAGGCGTGGCTCCGGGAGAGCAAAGCACCGTGTCAGGCGCATGATCCGGGGTGGCCTTTCACTGGGATCGTGGGGAC: 0.385 ratio
GTGAGCGGTGCCCATTGATGGGGAACACTGAACTTCACTCCTGCTAGGGAGCTCTGGGAGCCAGTGTAGAATTGCATCTCCAAGCTGTCCCACCTGAGAGGTGAGGAAGCTCAAGTACTAAATTACTGATTCAGTATTGTGCTGGCAACGGGTTCTCCAGTAGGAGGTCAAGGGAGCCCTGATTTGTAGCATTTGCCAATGACCATGGTGTAAATACTCTTTCACTGGGATCGTGGGGAC: -0.0326 ratio
GTGAGCGGTGCCCATTGATGGGGAACATAGAAATTAAACAGATATAAAACTAGTAAACTCAGATAAAACTAGCACATATGTGAGAGCAAATTCAGCAAAACAAACCTCTGAATTTCAAAGTAAACATGTCCTTGAAGATGTGGAAACAGGGTCAAACTCCACCAATGTTCTGTGAGTCACATATTTACTCTGAGATTCAGGGGTCAAGGGGGAAAGTTATTTCACTGGGATCGTGGGGAC: 0.253 ratio

Series 7
Target: Replicase polyprotein 1ab, nsp13 helicase (rep, Severe acute respiratory syndrome coronavirus 2, UniProt P0DTD1)
Mode: inhibitor
Concentration: 20 µM
Quantity: inhibition
CN1C(=O)CN=C(c2ccccc2)c2cc(Cl)ccc21: -14.1%
O=S(=O)(O)c1ccc(-c2c3nc(c(-c4ccc(S(=O)(=O)O)cc4)c4ccc([nH]4)c(-c4ccc(S(=O)(=O)O)cc4)c4nc(c(-c5ccc(S(=O)(=O)O)cc5)c5ccc2[nH]5)C=C4)C=C3)cc1: 82.3%
CN1CCN(C2CCN(C(=O)Nc3cc(Oc4ccc(NC(=O)C5(C(=O)Nc6ccc(F)cc6)CC5)c(F)c4)ccn3)CC2)CC1: 7.85%
c1cc(-c2cnn3cc(-c4ccc(N5CCNCC5)cc4)cnc23)c2cccnc2c1: 4.41%
CCOc1cc(OCC)c(C(=O)CCC(=O)O)cc1OCC: -5.36%
O=C(Nc1ccccc1C(=O)Nc1ccc(CCO)cc1)c1ccc([N+](=O)[O-])cc1: 12.7%
NP(N)(=O)NC(=O)c1ccc(F)cc1: 2.99%
CCN(CC)CCCC(C)Nc1nc(C)cc(Nc2ccc3nc(C)cc(N)c3c2)n1 (stereo not shown): 20.2%
Nc1ccc(S(=O)(=O)Nc2nccs2)cc1: 3.59%
COc1ccc2c(c1)CN(C)CC2c1ccc(Cl)c(Cl)c1 (stereo not shown): -1.02%
Nc1nc(=O)n([C@H]2C[C@H](O)[C@@H](CO)O2)cc1Cl: 9.41%
C[C@H](O)C(=O)Nc1c(I)c(C(=O)NC(CO)CO)c(I)c(C(=O)NC(CO)CO)c1I: 9.12%
CCCC[C@H](NC(=O)[C@@H]1[C@@H]2[C@H](CN1C(=O)[C@@H](NC(=O)NC1(CS(=O)(=O)C(C)(C)C)CCCCC1)C(C)(C)C)C2(C)C)C(=O)C(=O)NC1CC1: -0.22%
CC1=C(CCC(=O)O)c2cc3[nH]c(cc4nc(cc5[nH]c(cc1n2)c(C)c5C(C)O)C(C)=C4C(C)O)c(C)c3CCC(=O)O (stereo not shown): 94.7%
Cn1cnc([N+](=O)[O-])c1Sc1ncnc2[nH]cnc12: 9.59%
Nc1ncnc2c1ncn2C1CCCO1 (stereo not shown): 6.21%
C[C@@H](NCCCc1cccc(C(F)(F)F)c1)c1cccc2ccccc12: 4.88%
OCc1c[nH]c2ccccc12: 1.24%
CC1(C)Oc2ccc(C#N)cc2[C@@H](N2CCCC2=O)[C@@H]1O: -0.85%
O=C(Nc1cc(Cl)cc(Cl)c1O)c1c(O)c(Cl)cc(Cl)c1Cl: 5.34%
COc1ccc(-c2coc3cc(O)cc(O)c3c2=O)cc1: -0.4%
COc1cc2c(Nc3ccc(NC(=O)c4ccccc4)cc3)ncnc2cc1OCCCN1CCOCC1: 7.95%
Nc1c(-c2cccc(C(F)(F)F)c2)nsc1C(=O)O: 2.96%
COc1c2occc2cc2ccc(=O)oc12: 8.02%
C/C(O)=C(\C#N)C(=O)Nc1cc(Br)ccc1Br: 5.27%

Some of these lines once more (series 7):
c1cc(-c2cnn3cc(-c4ccc(N5CCNCC5)cc4)cnc23)c2cccnc2c1: 4.41%
COc1cc2c(Nc3ccc(NC(=O)c4ccccc4)cc3)ncnc2cc1OCCCN1CCOCC1: 7.95%
CCOc1cc(OCC)c(C(=O)CCC(=O)O)cc1OCC: -5.36%
CCCC[C@H](NC(=O)[C@@H]1[C@@H]2[C@H](CN1C(=O)[C@@H](NC(=O)NC1(CS(=O)(=O)C(C)(C)C)CCCCC1)C(C)(C)C)C2(C)C)C(=O)C(=O)NC1CC1: -0.22%
NP(N)(=O)NC(=O)c1ccc(F)cc1: 2.99%
